Published values from different studies.
Numbered parts are unrelated; each lists some results of a single study. Values joined by “and” are separate records of one study, mostly repeats; a detail may differ.
Sequence of UniProt P42336 (whole entry, unmodified, looked up): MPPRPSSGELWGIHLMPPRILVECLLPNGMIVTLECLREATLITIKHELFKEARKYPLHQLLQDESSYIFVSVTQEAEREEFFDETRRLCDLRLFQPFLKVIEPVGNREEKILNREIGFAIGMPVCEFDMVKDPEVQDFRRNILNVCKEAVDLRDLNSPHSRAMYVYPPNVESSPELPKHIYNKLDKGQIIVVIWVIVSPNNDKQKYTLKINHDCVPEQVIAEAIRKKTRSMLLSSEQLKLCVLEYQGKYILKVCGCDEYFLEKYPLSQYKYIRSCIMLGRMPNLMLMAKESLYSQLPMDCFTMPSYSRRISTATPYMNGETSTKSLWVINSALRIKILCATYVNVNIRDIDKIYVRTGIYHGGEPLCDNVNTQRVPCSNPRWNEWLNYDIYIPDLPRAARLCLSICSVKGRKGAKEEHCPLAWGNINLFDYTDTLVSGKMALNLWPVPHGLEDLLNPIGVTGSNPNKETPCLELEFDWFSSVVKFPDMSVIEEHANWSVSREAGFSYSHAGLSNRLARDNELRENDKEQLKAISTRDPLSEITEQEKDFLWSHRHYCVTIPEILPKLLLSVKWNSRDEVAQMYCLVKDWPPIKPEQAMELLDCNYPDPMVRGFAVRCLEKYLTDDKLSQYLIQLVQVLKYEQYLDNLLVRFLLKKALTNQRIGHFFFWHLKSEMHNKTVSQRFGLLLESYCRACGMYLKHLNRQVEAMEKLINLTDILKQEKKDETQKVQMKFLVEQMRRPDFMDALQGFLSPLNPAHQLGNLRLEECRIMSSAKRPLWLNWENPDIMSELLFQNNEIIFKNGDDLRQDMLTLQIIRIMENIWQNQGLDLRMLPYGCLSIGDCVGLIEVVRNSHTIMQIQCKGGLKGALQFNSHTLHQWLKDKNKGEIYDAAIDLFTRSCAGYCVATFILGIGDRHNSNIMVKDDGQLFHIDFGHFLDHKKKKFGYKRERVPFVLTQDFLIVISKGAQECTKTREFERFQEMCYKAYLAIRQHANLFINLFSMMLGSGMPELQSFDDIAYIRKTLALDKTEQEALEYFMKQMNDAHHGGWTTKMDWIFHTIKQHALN
Sequence of UniProt Q8WXR4 (whole entry, looked up): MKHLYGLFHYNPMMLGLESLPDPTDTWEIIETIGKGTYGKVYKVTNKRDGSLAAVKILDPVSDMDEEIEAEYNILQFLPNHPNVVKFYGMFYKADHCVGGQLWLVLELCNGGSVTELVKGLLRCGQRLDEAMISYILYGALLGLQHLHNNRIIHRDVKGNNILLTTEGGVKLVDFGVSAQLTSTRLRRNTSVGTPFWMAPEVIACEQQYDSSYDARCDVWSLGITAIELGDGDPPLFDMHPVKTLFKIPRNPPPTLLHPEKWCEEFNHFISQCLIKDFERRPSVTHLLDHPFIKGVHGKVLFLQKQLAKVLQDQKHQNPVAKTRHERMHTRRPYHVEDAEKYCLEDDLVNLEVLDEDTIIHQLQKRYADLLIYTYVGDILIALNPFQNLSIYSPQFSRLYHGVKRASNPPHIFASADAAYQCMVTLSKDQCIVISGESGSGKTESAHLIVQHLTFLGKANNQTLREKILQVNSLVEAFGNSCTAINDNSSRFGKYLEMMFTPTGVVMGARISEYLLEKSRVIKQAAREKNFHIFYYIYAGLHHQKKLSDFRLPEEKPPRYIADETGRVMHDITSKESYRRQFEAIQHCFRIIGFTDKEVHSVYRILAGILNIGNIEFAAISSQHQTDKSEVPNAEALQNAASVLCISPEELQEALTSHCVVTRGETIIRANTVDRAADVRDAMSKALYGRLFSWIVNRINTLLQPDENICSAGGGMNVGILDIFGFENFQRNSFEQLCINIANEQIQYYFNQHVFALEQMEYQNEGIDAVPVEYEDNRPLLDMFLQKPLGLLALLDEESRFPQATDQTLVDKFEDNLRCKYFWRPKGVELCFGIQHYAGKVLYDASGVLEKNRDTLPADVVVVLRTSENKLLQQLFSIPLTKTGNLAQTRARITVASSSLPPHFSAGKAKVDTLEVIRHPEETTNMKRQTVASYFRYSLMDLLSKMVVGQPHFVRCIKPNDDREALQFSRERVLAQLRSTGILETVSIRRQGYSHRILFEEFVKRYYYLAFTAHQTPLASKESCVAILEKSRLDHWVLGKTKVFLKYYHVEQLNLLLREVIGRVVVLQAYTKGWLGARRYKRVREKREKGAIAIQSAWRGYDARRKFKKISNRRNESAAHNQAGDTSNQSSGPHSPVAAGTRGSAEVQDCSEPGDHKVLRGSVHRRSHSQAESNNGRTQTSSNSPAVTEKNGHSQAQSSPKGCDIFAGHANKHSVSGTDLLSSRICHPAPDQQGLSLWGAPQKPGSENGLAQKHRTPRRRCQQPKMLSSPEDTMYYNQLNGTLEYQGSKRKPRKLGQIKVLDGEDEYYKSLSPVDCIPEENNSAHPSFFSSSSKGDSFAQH
Sequence of UniProt Q12866 (whole entry, looked up): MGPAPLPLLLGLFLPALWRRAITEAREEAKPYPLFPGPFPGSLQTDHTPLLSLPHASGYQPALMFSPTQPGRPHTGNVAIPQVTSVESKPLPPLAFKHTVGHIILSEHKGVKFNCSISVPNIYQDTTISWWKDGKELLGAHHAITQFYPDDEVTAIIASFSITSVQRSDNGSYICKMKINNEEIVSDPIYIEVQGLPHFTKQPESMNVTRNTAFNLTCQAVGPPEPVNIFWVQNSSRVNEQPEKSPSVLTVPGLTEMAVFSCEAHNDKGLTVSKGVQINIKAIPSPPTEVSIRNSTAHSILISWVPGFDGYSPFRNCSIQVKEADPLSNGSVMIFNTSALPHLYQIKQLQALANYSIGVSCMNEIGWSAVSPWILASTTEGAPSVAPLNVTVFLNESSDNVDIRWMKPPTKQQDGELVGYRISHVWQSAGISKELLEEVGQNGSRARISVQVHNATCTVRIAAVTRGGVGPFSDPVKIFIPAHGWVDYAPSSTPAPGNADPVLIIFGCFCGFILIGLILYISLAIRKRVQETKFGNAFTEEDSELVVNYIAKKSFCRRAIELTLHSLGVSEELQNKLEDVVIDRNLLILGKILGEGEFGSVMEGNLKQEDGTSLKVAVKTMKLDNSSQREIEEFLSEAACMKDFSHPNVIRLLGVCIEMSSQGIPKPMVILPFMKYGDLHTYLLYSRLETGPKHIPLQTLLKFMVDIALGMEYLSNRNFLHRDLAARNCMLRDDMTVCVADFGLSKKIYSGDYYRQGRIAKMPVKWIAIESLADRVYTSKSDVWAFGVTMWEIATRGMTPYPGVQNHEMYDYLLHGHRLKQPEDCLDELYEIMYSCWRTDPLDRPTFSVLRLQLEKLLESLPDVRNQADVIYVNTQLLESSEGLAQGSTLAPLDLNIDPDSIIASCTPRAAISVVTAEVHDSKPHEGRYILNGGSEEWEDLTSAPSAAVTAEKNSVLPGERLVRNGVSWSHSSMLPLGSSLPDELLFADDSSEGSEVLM
Sequence of UniProt P52333 (whole entry, looked up): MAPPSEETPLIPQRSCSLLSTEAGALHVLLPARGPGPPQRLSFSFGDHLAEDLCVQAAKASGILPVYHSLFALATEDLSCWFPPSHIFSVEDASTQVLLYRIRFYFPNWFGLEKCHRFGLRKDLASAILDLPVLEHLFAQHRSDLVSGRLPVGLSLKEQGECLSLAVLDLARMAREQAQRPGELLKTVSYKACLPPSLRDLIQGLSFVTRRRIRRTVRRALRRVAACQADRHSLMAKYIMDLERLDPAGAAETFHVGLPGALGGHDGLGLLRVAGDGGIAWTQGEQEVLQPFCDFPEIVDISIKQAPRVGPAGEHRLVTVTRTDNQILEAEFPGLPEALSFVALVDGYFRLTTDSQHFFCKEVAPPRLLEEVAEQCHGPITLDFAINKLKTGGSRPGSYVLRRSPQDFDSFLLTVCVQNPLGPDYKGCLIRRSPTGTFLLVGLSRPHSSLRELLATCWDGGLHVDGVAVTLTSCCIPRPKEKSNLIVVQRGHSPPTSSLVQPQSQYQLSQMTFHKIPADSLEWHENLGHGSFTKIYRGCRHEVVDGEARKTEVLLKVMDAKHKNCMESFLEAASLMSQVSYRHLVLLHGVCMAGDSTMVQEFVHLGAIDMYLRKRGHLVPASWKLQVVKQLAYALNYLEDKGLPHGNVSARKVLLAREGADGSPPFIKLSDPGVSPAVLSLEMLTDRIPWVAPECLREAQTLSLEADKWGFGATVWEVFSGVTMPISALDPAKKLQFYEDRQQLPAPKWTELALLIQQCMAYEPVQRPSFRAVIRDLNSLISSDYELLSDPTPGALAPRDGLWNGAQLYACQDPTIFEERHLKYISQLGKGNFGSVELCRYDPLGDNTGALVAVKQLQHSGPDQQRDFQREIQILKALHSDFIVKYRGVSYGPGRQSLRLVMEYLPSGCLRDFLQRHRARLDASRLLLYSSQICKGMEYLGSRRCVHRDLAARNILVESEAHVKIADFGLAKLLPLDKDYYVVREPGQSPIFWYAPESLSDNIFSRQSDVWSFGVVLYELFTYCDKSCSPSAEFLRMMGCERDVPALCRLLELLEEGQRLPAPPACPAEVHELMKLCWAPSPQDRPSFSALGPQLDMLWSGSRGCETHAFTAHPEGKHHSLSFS

Series 1
Target: Casein kinase I isoform delta (CSNK1D, Homo sapiens, UniProt P48730)
Sequence of UniProt P48730 (whole entry, looked up): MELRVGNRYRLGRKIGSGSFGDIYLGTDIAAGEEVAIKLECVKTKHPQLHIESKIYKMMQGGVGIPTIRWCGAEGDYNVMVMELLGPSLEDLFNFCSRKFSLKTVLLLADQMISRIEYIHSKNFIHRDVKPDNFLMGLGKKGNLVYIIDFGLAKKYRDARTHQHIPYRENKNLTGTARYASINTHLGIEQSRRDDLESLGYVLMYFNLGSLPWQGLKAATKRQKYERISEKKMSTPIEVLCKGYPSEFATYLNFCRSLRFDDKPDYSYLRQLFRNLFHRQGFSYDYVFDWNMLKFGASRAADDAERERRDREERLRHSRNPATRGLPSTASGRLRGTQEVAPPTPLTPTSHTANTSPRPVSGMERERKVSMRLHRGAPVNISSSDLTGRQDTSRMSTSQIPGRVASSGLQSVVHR
Effect on: enzyme activity
Action: inhibitor
Concentration: 0.5 µM
Baseline: control
Compound | remaining activity [%]
c1ccc(-c2[nH]ncc2-c2ccnc3ccccc23)nc1 | 44.2
O=C(Nc1cccc(Nc2nccc(Nc3cccc(C(F)(F)F)c3)n2)c1)C1CC1 | 111
O=c1cc(-c2cccc3c2Sc2ccccc2S3)oc(N2CCOCC2)c1 | 106
COc1cc2ncnc(Nc3ccc(O)c(Br)c3)c2cc1OC | 89.7
c1ccc(-c2cnc(Nc3ccc(OCCN4CCCC4)cc3)s2)cc1 | 95.8
O=C(NC(NC(=S)Nc1ccc(F)c([N+](=O)[O-])c1)C(Cl)(Cl)Cl)C(c1ccccc1)c1ccccc1 (centres unmarked) | 105
O=C1C(Cl)=C(N2C(=O)CCC2=O)C(=O)c2ccccc21 | 99.4
Ic1cccc(CSc2nnc(-c3ccncc3)o2)c1 | 103
N#C/C(=C\c1ccc(O)c(O)c1)C(=O)NCc1ccccc1 | 98.3
Cn1nc2c3c(cccc31)C(=O)c1ccccc1-2 | 20.8
CCN(CC)C(=O)c1ccc(Nc2nc(OCC3CCCCC3)c3[nH]cnc3n2)cc1 | 102
Nc1cccc(-c2cc3c(Oc4cccc(O)c4)ncnc3[nH]2)c1 | 96.8
N#Cc1c(NC(=O)c2cccc3ccccc23)sc2c1CCCC2 | 106
CCN(CC)CCNC(=O)c1c(C)[nH]c(/C=C2\C(=O)Nc3ccc(Cl)cc32)c1C | 49.7
CCOc1nc(NC(=O)Cc2cc(OC)ccc2OC)cc(N)c1C#N | 103
CN(C)C[C@H]1CCn2c(c(C3=C(c4cn(C)c5ccccc45)C(=O)NC3=O)c3ccccc32)C1 | 101
Cc1nc2cc3nc(-c4cccs4)cnc3cc2n1C | 95.9
O=C1c2ccccc2-c2n[nH]c3cccc1c23 | 13.1
COc1cc2ncnc(Nc3cccc(Cl)c3)c2cc1OC | 100
COc1cc2c(cc1OC)-c1[nH]nc(Nc3cccc(F)c3)c1C2 | 99.9
Cc1cc2ncc(-c3ccccc3)nc2cc1C | 90.7
CCN(CC)CCNC(=O)c1c(C)[nH]c(/C=C2\C(=O)Nc3ccc(F)cc32)c1C | 31.8

Series 2
Medium: hydrocarbon/water
Structure (SMILES) | logD
CCC[C@@H]1NC(=O)CN(CCC)C(=O)[C@H](CC(C)C)NC(=O)Cn2cc(nn2)CN(C)C(=O)[C@H](CC(C)C)NC(=O)[C@H](C)N(C)C(=O)[C@H](CC)NC(=O)[C@H](C)N(C)C(=O)[C@H]2CCCN2C1=O | -1.84
CCCN1CC(=O)N[C@@H](CC2CCCCC2)C(=O)N(C)[C@@H](C)C(=O)N[C@@H](CC(C)C)C(=O)N(C)Cc2cn(nn2)CC(=O)N[C@@H](C2CCCCC2)C(=O)N(C)[C@@H](C)C(=O)N[C@@H](CC2CCCCC2)C(=O)N2CCC[C@@H]2C1=O | 2.51
CC(C)C[C@@H]1NC(=O)CN(CCCOC(C)C)C(=O)[C@H](C)NC(=O)[C@H](CC(C)C)N(C)C(=O)[C@H]2CCCN2C(=O)[C@H](C)NC(=O)CN(CC2CCCCC2)C(=O)[C@H](C)NC(=O)[C@H](CC(C)C)N(C)C(=O)[C@H]2CCCN2C1=O | 2.34
CCN1CC(=O)N[C@@H](CC(C)C)C(=O)N2CCC[C@@H]2C(=O)N(C)[C@@H](CC(C)C)C(=O)N[C@@H](C)C(=O)N(CC2CCCCC2)CC(=O)N[C@@H](Cc2ccccc2)C(=O)N2CCC[C@@H]2C(=O)N(C)[C@@H](CC(C)C)C(=O)N[C@@H](C)C1=O | 2.84
CCC[C@@H]1NC(=O)[C@H](C)N(C)C(=O)[C@H](CC(C)C)NC(=O)Cn2cc(nn2)CN(C)C(=O)[C@H](CC(C)C)NC(=O)[C@H](C)N(C)C(=O)[C@H](CC2CCCCC2)NC(=O)[C@H](CCC)N(C)C(=O)[C@H]2CCCN2C1=O | 1.21
CCC[C@H]1C(=O)N[C@@H](CC2CCCCC2)C(=O)N(C)[C@@H](C)C(=O)N[C@@H](CC(C)C)C(=O)N(C)Cc2cn(nn2)CC(=O)N[C@@H](CC(C)C)C(=O)N(C)[C@@H](C)C(=O)N[C@@H](C2CCCCC2)C(=O)N2CCC[C@@H]2C(=O)N1C | 1.95
CCC[C@H]1NC(=O)CSC[C@@H](C(=O)OCC)N(C)C(=O)[C@H](CC(C)C)NC(=O)[C@H](C)N(C)C(=O)[C@H](CC(C)C)NC(=O)[C@H](C)N(C)C(=O)[C@H]2CCCN2C(=O)[C@H](CC(C)C)NC(=O)CN(C)C1=O | 0.647
CCCN1CC(=O)N[C@@H](CC2CCCCC2)C(=O)N2CCC[C@@H]2C(=O)N(C)[C@@H](C)C(=O)N[C@@H](CC2CCCCC2)C(=O)N(C)[C@@H](C)C(=O)N[C@@H](CC(C)C)C(=O)N(C)Cc2cn(nn2)CC(=O)N[C@@H](C2CCCCC2)C1=O | 2.43
CCC[C@@H]1NC(=O)[C@H](C)N(C)C(=O)[C@H](CC(C)C)NC(=O)Cn2cc(nn2)CN(C)C(=O)[C@H](CC(C)C)NC(=O)[C@H](C)N(C)C(=O)[C@H](CC(C)C)NC(=O)CN(CCC)C(=O)[C@H]2CCCN2C1=O | -0.493
CCCCCN1CC(=O)N[C@@H](C)C(=O)N2CCC[C@@H]2C(=O)N(C)[C@@H](CC(C)C)C(=O)N[C@@H](C)C(=O)N(Cc2ccc3c(c2)OCO3)CC(=O)N[C@@H](CC(C)C)C(=O)N2CCC[C@@H]2C(=O)N(C)[C@@H](CC(C)C)C(=O)N[C@@H](C)C1=O | 2.16
CC(C)C[C@@H]1NC(=O)[C@H](Cc2ccccc2)N(C)C(=O)[C@H]2CCCN2C(=O)[C@H](CC(C)C)NC(=O)[C@H](C)N(C)C(=O)[C@@H](C)N(C)C1=O | 1.13

Series 3
Structure (SMILES): COc1ccc(-c2c(Nc3ccccn3)[nH]c3c(C4=CCCCC4)c(-c4ccccc4)nn3c2=O)cc1
Species: human
Medium: plasma
Route: oral
dose | time | baseline | accumulation ratio
50 mg once daily | cycle 1 | steady state over single dose | 3.13
400 mg once daily | cycle 1 | steady state over single dose | 1.2 and 1.92 and 1.66 and 1.93
200 mg twice daily |  | steady-state AUC over single-dose AUC | 27.9 and 19.4 and 11.5

Series 4
SMILES: CO[C@@H](C)c1c(Nc2ccc([C@H](N(C)C(=O)C3CCS(=O)(=O)CC3)C(F)(F)F)cc2)cnc2cc(Cl)nn12
Technique: competition with immobilised ligand
Concentration: 1 µM
target | effect on | remaining binding
Myosin-IIIb (MYO3B, Homo sapiens, UniProt Q8WXR4) | binding | 82%
Serine/threonine-protein kinase Nek10 (NEK10, Homo sapiens, UniProt Q6ZWH5) | cell-free assay | 100%
Tyrosine-protein kinase JAK3, JH1 (JAK3, Homo sapiens, UniProt P52333) | cell-free assay | 99%
Mitogen-activated protein kinase kinase kinase kinase 1 (MAP4K1, Homo sapiens, UniProt Q92918) | cell-free assay | 100%
Non-receptor tyrosine-protein kinase TYK2, JH2 (TYK2, Homo sapiens, UniProt P29597) | cell-free assay | 100%
Mitogen-activated protein kinase kinase kinase 15 (MAP3K15, Homo sapiens, UniProt Q6ZN16) | cell-free assay | 100%
Homeodomain-interacting protein kinase 4 (HIPK4, Homo sapiens, UniProt Q8NE63) | cell-free assay | 72%
Vascular endothelial growth factor receptor 1 (FLT1, Homo sapiens, UniProt P17948) | cell-free assay | 82%
Phosphatidylinositol 4,5-bisphosphate 3-kinase catalytic subunit alpha isoform (PIK3CA, Homo sapiens, UniProt P42336, H1047Y) | cell-free assay | 62%
Tyrosine-protein kinase Mer (MERTK, Homo sapiens, UniProt Q12866) | cell-free assay | 87%
Dual serine/threonine and tyrosine protein kinase (DSTYK, Homo sapiens, UniProt Q6XUX3) | cell-free assay | 100%
Phosphorylase b kinase gamma catalytic chain, skeletal muscle/heart isoform (PHKG1, Homo sapiens, UniProt Q16816) | cell-free assay | 93%
Tyrosine-protein kinase ABL1, non-phosphorylated (ABL1, Homo sapiens, UniProt P00519, H396P) | cell-free assay | 95%
Serine/threonine-protein kinase 38-like (STK38L, Homo sapiens, UniProt Q9Y2H1) | cell-free assay | 75%

Some of these lines once more (series 2):
Structure (SMILES) | logD
CC(C)C[C@@H]1NC(=O)CN(CCCOC(C)C)C(=O)[C@H](C)NC(=O)[C@H](CC(C)C)N(C)C(=O)[C@H]2CCCN2C(=O)[C@H](C)NC(=O)CN(CC2CCCCC2)C(=O)[C@H](C)NC(=O)[C@H](CC(C)C)N(C)C(=O)[C@H]2CCCN2C1=O | 2.34
CCN1CC(=O)N[C@@H](CC(C)C)C(=O)N2CCC[C@@H]2C(=O)N(C)[C@@H](CC(C)C)C(=O)N[C@@H](C)C(=O)N(CC2CCCCC2)CC(=O)N[C@@H](Cc2ccccc2)C(=O)N2CCC[C@@H]2C(=O)N(C)[C@@H](CC(C)C)C(=O)N[C@@H](C)C1=O | 2.84
CCC[C@@H]1NC(=O)[C@H](C)N(C)C(=O)[C@H](CC(C)C)NC(=O)Cn2cc(nn2)CN(C)C(=O)[C@H](CC(C)C)NC(=O)[C@H](C)N(C)C(=O)[C@H](CC2CCCCC2)NC(=O)[C@H](CCC)N(C)C(=O)[C@H]2CCCN2C1=O | 1.21
CCC[C@H]1C(=O)N[C@@H](CC2CCCCC2)C(=O)N(C)[C@@H](C)C(=O)N[C@@H](CC(C)C)C(=O)N(C)Cc2cn(nn2)CC(=O)N[C@@H](CC(C)C)C(=O)N(C)[C@@H](C)C(=O)N[C@@H](C2CCCCC2)C(=O)N2CCC[C@@H]2C(=O)N1C | 1.95
CCC[C@H]1NC(=O)CSC[C@@H](C(=O)OCC)N(C)C(=O)[C@H](CC(C)C)NC(=O)[C@H](C)N(C)C(=O)[C@H](CC(C)C)NC(=O)[C@H](C)N(C)C(=O)[C@H]2CCCN2C(=O)[C@H](CC(C)C)NC(=O)CN(C)C1=O | 0.647
CCCN1CC(=O)N[C@@H](CC2CCCCC2)C(=O)N2CCC[C@@H]2C(=O)N(C)[C@@H](C)C(=O)N[C@@H](CC2CCCCC2)C(=O)N(C)[C@@H](C)C(=O)N[C@@H](CC(C)C)C(=O)N(C)Cc2cn(nn2)CC(=O)N[C@@H](C2CCCCC2)C1=O | 2.43
CCC[C@@H]1NC(=O)[C@H](C)N(C)C(=O)[C@H](CC(C)C)NC(=O)Cn2cc(nn2)CN(C)C(=O)[C@H](CC(C)C)NC(=O)[C@H](C)N(C)C(=O)[C@H](CC(C)C)NC(=O)CN(CCC)C(=O)[C@H]2CCCN2C1=O | -0.493
